# Measurements collected from several papers.
# A part holds a random share of what one study measured. Substitutions count along the parent as printed.

# Sample 1 — technique: RNA Bind-n-Seq; form: RNA; sample: in vitro; concentration: 100 nM; relative to: input RNA pool; reading: higher = stronger binding
# Target: RING finger protein unkempt homolog, zinc fingers 1-6, SBP tag (UNK, Homo sapiens, UniProt Q9C0B0, residues 30-357)
# Chain of UniProt Q9C0B0 (30-357, looked up): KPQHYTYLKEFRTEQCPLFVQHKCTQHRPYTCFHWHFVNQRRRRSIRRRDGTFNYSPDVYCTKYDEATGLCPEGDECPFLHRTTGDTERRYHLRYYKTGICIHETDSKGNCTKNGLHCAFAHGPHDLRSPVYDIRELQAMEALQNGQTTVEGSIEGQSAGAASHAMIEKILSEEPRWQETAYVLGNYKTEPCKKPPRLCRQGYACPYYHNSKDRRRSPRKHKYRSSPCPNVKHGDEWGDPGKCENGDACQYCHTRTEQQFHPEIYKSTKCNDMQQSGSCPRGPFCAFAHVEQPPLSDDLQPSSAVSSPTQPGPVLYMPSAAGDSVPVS
# Setting: RNA with constant flanks, vertebrate orthologous sites, ends assumed
Oligonucleotide,bound/input enrichment [ratio]
GGGAGUUCUACAGUCCGACGAUCGUAUUUUCAAACAAUAGGAAGCUUUGGUUUUGUUUUUUUUUUUCUCUCUUUUUUACAGUUUAGUGUAUCAGGUUUGUAUAUGGAAGACUAAACUCAUGCUUAUUUGCUAAAUGUGGGCUUCAACAGAGGAUUGAGCAUCA,1.27
GGGAGUUCUACAGUCCGACGAUCGCACAUGCCGCUAUCACCAAAAGCAAACUGCCACUUUUCAAAUUUCAUUCAGAGCUGUGUUAGUGUUUCCUAUUCCCUACCCUUCCCACUUUCAAUGAUGAAAUAUCCUAAGUUCUCCUUCAACAGAGGAUUGAGCAUCA,1.48
GGGAGUUCUACAGUCCGACGAUCCAGAAAGGCCAAAUCCCCUCUACCCUUCUACUGCUUCUACCAACUGGAAGCACAGAAAACUAGAAUUUCAUUUAUUUUGUUUUUAAAAAUAUACGUUGAUUUCUUGUAACAUCCAAUAGGCAACAGAGGAUUGAGCAUCA,0.568

# Sample 2 — technique: universal PBM; form: double-stranded DNA, one strand shown; sample: in vitro; concentration: not given; reading: higher = stronger binding
# Target: Sal-like protein 4, full length isoform B (SALL4, Homo sapiens, UniProt Q9UJQ4-2, residues 1-616)
# Setting: 8-mer, flanks averaged, mean of replicates
Oligonucleotide,E-score
CTTGATCA,0.0598
GTAAACCA,0.0629
CGGACCTA,-0.13
CACCATCG,-0.29
ACGTGGGG,-0.0942

# Mixed results
# ABI1: ABI1, truncated, D143A, DHFR fusion (Arabidopsis thaliana, UniProt P49597)
# P1: PYL1, truncated, DHFR fusion (Arabidopsis thaliana, UniProt Q8VZS8); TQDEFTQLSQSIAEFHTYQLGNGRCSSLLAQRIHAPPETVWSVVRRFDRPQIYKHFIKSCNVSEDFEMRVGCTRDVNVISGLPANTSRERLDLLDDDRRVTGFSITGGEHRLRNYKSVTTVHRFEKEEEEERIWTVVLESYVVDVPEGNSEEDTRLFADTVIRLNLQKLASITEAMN
Molecule,target,assay,test system,conditions,scale,measurement,result
P1 R113K,ABI1,"DHFR PCA, dose-response",yeast,"Hill fit, mean, not affinity, together with: (+)-ABA, dose series",lower = more sensitive,ABA EC50,1.49 µM
"PhoQ, residues 284 288 289 292 302 303 SNGLAW","PhoP, residues 12 14 15 18 19 NMSFL (Escherichia coli, UniProt P23836)","Sort-seq, refers to: YFP reporter",E. coli,"PhoQ-PhoP variant library, together with: 10 µM Mg2+","relative to: high Mg2+ state, higher = stronger signaling",fold induction,9.75
P1 Q31N,ABI1,"DHFR PCA, dose-response",yeast,"Hill fit, mean, not affinity, together with: (+)-ABA, dose series",lower = more sensitive,ABA EC50,131 µM

# Some of these lines once more (sample 2):
Oligonucleotide,E-score
CACCATCG,-0.29
